# Assay results from different studies.
# Protocols differ between the studies behind these lines. Several values in a cell are separate wells, animals, samples, runs or records. Numbers after ± are the reported error.
# HLA class I histocompatibility antigen, A alpha chain allele A*02:01: HLA class I histocompatibility antigen, A alpha chain, allele A*02:01 (Homo sapiens, UniProt P04439)
# Sequence of UniProt O00482 (whole entry, looked up): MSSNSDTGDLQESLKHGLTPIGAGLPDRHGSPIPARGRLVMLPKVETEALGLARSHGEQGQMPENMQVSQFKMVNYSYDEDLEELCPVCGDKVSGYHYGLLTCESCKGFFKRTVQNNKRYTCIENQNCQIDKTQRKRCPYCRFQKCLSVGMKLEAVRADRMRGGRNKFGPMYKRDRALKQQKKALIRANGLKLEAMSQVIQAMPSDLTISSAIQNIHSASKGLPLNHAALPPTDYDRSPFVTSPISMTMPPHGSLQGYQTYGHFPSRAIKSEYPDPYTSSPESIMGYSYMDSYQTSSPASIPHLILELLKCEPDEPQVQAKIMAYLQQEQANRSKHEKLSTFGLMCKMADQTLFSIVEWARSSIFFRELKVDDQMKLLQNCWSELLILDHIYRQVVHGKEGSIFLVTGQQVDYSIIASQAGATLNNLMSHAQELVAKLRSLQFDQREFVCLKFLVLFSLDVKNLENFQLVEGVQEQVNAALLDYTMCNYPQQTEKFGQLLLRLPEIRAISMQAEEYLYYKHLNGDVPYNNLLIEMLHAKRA
# Sequence of UniProt P18206 (whole entry, looked up): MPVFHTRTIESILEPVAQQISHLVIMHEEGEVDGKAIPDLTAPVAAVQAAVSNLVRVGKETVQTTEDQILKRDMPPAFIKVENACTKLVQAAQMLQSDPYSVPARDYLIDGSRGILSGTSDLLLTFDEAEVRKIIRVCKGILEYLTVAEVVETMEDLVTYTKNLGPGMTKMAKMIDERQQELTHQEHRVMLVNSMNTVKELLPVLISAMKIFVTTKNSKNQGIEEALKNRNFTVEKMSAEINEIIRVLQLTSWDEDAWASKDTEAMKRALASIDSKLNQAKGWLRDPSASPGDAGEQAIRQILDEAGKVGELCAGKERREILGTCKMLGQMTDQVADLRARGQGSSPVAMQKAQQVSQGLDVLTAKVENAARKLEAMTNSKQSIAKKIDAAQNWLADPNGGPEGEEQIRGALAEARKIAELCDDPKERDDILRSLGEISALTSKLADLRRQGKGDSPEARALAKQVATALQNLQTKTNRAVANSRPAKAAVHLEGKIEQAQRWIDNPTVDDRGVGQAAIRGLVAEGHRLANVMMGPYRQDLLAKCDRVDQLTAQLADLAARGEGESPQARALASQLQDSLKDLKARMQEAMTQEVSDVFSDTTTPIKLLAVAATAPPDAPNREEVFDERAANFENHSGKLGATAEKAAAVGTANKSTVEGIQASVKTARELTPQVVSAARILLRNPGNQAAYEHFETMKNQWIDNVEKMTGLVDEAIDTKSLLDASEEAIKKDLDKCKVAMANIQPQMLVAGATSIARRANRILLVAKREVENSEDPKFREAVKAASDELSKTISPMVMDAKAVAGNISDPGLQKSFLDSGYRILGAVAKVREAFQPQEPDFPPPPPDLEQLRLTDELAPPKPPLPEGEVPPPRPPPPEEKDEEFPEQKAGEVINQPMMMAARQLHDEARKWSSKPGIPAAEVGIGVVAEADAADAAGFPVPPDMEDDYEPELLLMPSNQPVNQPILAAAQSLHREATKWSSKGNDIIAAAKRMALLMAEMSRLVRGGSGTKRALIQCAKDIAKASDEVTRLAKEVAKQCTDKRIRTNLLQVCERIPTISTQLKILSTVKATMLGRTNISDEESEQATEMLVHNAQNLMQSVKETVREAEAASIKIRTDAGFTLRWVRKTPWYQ
# Sequence of UniProt Q13283 (whole entry, looked up): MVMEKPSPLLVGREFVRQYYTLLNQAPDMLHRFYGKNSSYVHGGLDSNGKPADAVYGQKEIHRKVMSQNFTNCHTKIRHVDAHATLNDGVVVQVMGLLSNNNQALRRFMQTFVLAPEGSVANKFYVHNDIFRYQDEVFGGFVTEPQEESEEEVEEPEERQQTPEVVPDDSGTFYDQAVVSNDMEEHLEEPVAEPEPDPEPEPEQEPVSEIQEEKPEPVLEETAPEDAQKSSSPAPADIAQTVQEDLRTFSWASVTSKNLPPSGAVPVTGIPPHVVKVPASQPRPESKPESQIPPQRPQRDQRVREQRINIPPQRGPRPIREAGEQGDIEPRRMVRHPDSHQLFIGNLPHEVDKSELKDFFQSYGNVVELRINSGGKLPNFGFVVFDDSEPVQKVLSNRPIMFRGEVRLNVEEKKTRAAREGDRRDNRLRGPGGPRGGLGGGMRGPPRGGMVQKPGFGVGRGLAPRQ
# Sequence of UniProt Q92731 (whole entry, looked up): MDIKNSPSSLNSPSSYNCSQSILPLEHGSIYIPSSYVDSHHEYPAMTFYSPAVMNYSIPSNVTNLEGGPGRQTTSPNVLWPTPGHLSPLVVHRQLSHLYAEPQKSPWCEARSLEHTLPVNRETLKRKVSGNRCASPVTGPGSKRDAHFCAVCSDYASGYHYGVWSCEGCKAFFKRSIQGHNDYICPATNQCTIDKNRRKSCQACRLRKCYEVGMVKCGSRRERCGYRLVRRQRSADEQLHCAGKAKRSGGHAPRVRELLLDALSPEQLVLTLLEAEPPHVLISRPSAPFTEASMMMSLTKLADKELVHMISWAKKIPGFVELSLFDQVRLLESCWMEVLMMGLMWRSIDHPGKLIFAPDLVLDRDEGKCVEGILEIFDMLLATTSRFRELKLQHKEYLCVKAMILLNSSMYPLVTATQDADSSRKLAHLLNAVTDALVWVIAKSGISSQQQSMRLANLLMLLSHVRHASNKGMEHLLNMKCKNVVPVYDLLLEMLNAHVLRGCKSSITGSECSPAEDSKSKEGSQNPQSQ
Substance,target or system,test,test system,conditions,how to read,quantity,value
QSARYRDTEL,human MAGI1-2/6 PDZ construct (MBP fusion),automated holdup,"peptide, crude extract","concentration not given, corrected by standard peak, unit not given","relative to: biotin control resin, higher = stronger binding",binding intensity,0.0397
polyuridylic acid,"G3BP1 (Homo sapiens, UniProt Q13283)","binding, biolayer interferometry",,pH 7.5,,Kd,9360 ± 40 nM
GSGAGRETEV,human MAGI1-3/6 PDZ construct (MBP fusion),automated holdup,"peptide, purified PDZ protein","concentration not given, unit not given","relative to: biotin control resin, higher = stronger binding",binding intensity,0.172
FMLGEFLKL,"HLA class I histocompatibility antigen, A alpha chain allele A*02:01","peptide-MHC stability, brefeldin A chase","peptide, T2 cells",,,complex half-life,> 7 h
Phytol,"uncharacterized protein (Drosophila suzukii, UniProt A0AB39ZCT4)","bis-ANS displacement, fluorescence competition binding",,pH 7.4,,IC50,> 50000 nM
EDQVDPRLIDSK,"anti-protein C antibody HPC4, mouse","binding, peptide microarray",peptide,peptide immobilised,,Kd,32 nM
ILEAAKSIAAATSALVKAASAAQRE,"Vinculin, Vd1 head domain (VCL, Homo sapiens, UniProt P18206)","binding, isothermal titration calorimetry",peptide,25 °C,,Kd,34 ± 6 nM
LTLGEFLKL,"HLA class I histocompatibility antigen, A alpha chain allele A*02:01","peptide-MHC stability, brefeldin A chase","peptide, T2 cells",,,complex half-life,2.72 h
asialo ovine submaxillary mucin,mouse MGL-2,glycan microarray,,,,Kd,1.8 ± 0.6 nM
rhodamine-DOPE,"Nuclear receptor subfamily 5 group A member 2, ligand-binding domain (NR5A2, Homo sapiens, UniProt O00482)",FRET binding,,apparent value,,Kd,10.2 nM and ~10 nM
epigallocatechin,"ESR2 (Homo sapiens, UniProt Q92731)","array formation, agonist",GFP-ERβ PRL-HeLa,1 h,,EC50,1770 nM
epoetin alfa,UT7/EPO,"RT-qPCR, refers to: MAFF",,"concentration not given, 90 min",relative to: vehicle,mRNA fold induction,2.5 fold
sacituzumab,cynomolgus TROP2,"binding, bio-layer interferometry",,,,Kd,2.91 nM
LMFGAPALV,"HLA class I histocompatibility antigen, A alpha chain allele A*02:01","peptide-MHC stability, brefeldin A chase","peptide, T2 cells",,,complex half-life,> 24 h
GLLQWITQV,Jurkat T cells expressing 1G4 TCR,"NFAT-eGFP reporter, fluorescence microscopy",peptide,"concentration not given, HLA-A*02:01 NY-ESO system",,reporter activation,25.5%
SLPDRILDA,"HLA class I histocompatibility antigen, A alpha chain allele A*02:01","peptide-MHC stability, brefeldin A chase","peptide, T2 cells",,,complex half-life,0.74 h
11-deoxycorticosterone,CYP11B2 (human),"substrate binding, stopped-flow global kinetic fitting",purified enzyme,"model, linear, 4 state, CS-IF, added: 10-fold excess adrenodoxin",,Kd,2020 nM

# Repeated from above:
Substance,target or system,test,test system,conditions,how to read,quantity,value
asialo ovine submaxillary mucin,mouse MGL-2,glycan microarray,,,,Kd,1.8 ± 0.6 nM
sacituzumab,cynomolgus TROP2,"binding, bio-layer interferometry",,,,Kd,2.91 nM
QSARYRDTEL,human MAGI1-2/6 PDZ construct (MBP fusion),automated holdup,"peptide, crude extract","concentration not given, corrected by standard peak, unit not given","relative to: biotin control resin, higher = stronger binding",binding intensity,0.0397
